Measurements of several laboratories.
A part holds a random share of what one study measured.
Chain of UniProt P78362 (whole entry, looked up): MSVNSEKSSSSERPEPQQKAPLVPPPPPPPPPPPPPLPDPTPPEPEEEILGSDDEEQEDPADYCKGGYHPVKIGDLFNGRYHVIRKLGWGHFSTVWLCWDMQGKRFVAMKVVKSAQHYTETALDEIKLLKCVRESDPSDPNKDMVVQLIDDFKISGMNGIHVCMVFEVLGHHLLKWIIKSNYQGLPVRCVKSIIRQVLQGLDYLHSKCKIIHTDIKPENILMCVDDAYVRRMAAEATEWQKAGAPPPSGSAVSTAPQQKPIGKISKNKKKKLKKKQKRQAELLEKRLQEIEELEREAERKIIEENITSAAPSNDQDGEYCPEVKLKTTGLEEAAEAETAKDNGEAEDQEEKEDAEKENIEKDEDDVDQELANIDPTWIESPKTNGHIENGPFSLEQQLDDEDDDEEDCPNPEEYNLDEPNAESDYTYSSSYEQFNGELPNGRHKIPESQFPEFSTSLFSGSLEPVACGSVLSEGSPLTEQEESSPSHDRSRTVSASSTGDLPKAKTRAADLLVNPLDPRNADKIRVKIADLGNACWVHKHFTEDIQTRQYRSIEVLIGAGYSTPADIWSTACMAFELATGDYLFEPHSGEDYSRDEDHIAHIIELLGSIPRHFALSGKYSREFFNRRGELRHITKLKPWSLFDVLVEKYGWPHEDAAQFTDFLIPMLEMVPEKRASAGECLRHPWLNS
Chain of UniProt P0DMS8 (whole entry, looked up): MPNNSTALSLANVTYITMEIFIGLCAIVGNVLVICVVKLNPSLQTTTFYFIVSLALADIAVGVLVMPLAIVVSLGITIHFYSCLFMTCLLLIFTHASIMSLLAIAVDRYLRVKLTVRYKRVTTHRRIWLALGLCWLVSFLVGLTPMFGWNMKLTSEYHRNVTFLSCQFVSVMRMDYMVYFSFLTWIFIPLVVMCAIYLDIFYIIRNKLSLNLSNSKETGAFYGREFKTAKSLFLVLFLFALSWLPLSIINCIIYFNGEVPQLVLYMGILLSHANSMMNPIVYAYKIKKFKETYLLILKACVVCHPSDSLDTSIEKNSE
Chain of UniProt P36896 (whole entry, looked up): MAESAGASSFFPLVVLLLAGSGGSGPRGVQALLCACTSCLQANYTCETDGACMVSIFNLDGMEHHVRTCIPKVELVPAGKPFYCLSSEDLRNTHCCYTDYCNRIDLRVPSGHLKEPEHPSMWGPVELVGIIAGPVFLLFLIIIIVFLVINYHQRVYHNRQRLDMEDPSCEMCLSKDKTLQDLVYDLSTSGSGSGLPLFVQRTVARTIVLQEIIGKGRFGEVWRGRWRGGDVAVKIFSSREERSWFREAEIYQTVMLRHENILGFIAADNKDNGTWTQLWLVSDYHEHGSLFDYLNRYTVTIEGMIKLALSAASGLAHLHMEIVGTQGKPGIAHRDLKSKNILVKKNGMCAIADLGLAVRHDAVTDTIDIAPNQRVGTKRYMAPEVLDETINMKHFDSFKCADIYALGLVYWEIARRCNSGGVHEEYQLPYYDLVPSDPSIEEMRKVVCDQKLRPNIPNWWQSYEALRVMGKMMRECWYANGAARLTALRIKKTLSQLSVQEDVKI
Chain of UniProt Q13976 (whole entry, looked up): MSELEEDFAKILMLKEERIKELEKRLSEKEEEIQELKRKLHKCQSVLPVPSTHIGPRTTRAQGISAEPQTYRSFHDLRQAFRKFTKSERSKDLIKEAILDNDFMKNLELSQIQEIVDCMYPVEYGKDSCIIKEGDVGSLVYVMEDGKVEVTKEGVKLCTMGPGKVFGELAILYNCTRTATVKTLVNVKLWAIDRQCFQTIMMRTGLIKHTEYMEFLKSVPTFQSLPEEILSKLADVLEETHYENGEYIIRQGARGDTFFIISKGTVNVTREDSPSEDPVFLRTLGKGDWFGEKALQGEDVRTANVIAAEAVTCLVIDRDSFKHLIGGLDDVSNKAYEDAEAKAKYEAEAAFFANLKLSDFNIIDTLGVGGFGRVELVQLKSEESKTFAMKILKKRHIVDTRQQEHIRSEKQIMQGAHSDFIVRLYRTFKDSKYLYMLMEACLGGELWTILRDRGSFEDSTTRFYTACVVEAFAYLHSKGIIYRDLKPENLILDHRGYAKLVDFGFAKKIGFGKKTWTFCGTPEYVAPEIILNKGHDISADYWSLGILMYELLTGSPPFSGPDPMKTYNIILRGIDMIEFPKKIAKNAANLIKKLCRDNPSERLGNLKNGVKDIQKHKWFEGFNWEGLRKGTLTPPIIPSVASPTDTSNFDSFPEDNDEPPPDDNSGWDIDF
Chain of UniProt P46089 (whole entry, looked up): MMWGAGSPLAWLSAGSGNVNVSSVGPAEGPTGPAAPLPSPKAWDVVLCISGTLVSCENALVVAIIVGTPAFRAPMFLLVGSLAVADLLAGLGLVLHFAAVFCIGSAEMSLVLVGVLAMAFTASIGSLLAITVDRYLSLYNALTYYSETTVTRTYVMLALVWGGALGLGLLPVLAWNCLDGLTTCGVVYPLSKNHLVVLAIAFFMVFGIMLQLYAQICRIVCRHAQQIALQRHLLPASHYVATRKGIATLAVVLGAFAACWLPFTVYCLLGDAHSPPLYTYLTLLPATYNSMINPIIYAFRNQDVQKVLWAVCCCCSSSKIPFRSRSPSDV
Chain of UniProt P41743 (whole entry, looked up): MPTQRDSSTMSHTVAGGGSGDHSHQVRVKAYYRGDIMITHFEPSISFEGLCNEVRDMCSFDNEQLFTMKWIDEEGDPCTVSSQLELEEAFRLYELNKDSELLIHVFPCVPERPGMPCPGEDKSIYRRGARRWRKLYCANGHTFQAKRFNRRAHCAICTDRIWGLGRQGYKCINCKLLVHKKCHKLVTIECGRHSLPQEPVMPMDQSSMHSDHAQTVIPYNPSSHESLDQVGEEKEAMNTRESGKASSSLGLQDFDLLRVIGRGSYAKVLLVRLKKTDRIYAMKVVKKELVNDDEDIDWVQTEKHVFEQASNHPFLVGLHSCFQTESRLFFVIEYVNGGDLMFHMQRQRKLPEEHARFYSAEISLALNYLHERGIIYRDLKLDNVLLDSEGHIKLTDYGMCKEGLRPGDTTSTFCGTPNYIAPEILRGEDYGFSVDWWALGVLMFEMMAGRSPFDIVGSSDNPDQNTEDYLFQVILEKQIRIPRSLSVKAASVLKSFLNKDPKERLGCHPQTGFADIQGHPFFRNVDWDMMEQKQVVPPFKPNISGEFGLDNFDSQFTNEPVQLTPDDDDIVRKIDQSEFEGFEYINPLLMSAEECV
Chain of UniProt P51684 (whole entry, looked up): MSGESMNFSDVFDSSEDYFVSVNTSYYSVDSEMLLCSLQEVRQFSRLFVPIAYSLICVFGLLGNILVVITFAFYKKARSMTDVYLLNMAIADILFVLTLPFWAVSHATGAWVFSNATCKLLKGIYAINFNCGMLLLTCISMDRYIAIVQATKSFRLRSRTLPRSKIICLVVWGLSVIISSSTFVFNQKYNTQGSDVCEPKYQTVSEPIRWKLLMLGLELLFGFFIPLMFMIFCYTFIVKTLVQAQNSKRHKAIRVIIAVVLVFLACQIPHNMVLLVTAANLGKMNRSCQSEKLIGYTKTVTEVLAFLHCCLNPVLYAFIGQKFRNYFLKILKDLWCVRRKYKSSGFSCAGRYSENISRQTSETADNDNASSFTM

Set 1 — observed: enzyme activity; mode: inhibitor; tested at: 0.5 µM; relative to: control
Target: Dual specificity protein kinase TTK (TTK, Homo sapiens, UniProt P33981)
Chain of UniProt P33981 (whole entry, looked up): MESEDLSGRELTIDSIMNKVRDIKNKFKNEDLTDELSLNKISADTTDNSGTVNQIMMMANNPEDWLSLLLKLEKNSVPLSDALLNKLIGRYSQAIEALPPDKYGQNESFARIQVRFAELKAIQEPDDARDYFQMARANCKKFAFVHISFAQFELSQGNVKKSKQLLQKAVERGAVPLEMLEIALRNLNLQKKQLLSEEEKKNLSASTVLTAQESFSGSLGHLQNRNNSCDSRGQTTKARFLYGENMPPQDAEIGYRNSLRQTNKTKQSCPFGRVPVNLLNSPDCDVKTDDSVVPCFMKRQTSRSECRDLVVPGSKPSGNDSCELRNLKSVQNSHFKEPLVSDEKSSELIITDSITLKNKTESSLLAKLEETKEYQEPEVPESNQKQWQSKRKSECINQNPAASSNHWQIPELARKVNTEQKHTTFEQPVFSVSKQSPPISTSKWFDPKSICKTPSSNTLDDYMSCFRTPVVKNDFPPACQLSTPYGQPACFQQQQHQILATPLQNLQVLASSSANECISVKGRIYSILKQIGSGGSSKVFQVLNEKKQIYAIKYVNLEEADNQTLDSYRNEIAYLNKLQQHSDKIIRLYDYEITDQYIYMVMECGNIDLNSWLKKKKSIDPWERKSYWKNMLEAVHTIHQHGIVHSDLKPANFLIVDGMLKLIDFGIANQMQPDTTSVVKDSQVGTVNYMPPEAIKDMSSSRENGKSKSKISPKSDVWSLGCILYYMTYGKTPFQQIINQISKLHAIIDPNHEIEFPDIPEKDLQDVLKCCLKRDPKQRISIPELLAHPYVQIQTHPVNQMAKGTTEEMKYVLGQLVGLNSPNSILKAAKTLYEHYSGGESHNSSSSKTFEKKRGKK
For `O=C1NC(=O)C(c2cn(CCCn3ccnc3)c3ccccc23)=C1Nc1ccccc1`, the remaining activity was 121%.
For `O=c1c2ccccc2[nH]c(=S)n1CCN1CCC(=C(c2ccc(F)cc2)c2ccc(F)cc2)CC1`, the remaining activity was 96.3%.
For `O=C(O)c1ccc2c3c1cccc3c(=O)n1c3ccccc3nc21`, the remaining activity was 81%.
For `O=C(CCCc1ccc(-c2ccccc2F)cc1)Nc1ccc(O)cc1`, the remaining activity was 89.5%.
`CNC(=O)c1cc(Oc2ccc(NC(=O)Nc3ccc(Cl)c(C(F)(F)F)c3)cc2)ccn1` has a remaining activity of 104%.
For `COc1ccc(C(=O)Nc2sc3c(c2C(N)=O)CCCC3)cc1OC`, the remaining activity was 95.6%.
With `CCOC(=O)c1c(C)[nH]c(/C=C2\C(=O)Nc3ccccc32)c1C` the remaining activity was 96.6%.
`Cc1nc(-c2ccccc2)c(-c2ccncc2)o1` gave a remaining activity of 100%.
For `Nc1ccc2ncnc(NCCc3ccc(Oc4ccccc4)cc3)c2c1`, the remaining activity was 97.6%.
For `CC(C)[C@H](CO)Nc1nc(Nc2cc(N)cc(Cl)c2)c2ncn(C(C)C)c2n1`, the remaining activity was 84.5%.
The remaining activity of `Oc1ccc(-c2nc(-c3ccncc3)c(-c3ccc(F)cc3)[nH]2)cc1` is reported as 103%.
`O=C1NC(=O)C(c2cn(CCCO)c3ncccc23)=C1c1cnccn1` gave a remaining activity of 94.5%.
`Nc1[nH]nc2nc3ccccc3nc12` has a remaining activity of 102%.
With `CN(C)c1ccc(C=C2C(=O)Nc3ccccc32)cc1` the remaining activity was 99.7%.
The remaining activity of `COc1ccc(CNC(=O)Nc2ncc([N+](=O)[O-])s2)cc1` is reported as 98.9%.

Set 2 — observed: cell-free assay; tested at: 1 µM
Compound: C[C@H]1CC[C@H](n2c3cnccc3c3cnc(Nc4ccc5c(n4)CCN(C(=O)CO)C5)nc32)CC1
The remaining signal was 100% (PIK3CA (Homo sapiens, UniProt P42336, Q546K)).
KIT (Homo sapiens, UniProt P10721, V559D/V654A) — remaining signal: 84%.
PRKG1 (Homo sapiens, UniProt Q13976) — remaining signal: 100%.
It gave 100% for remaining signal (SRPK2 (Homo sapiens, UniProt P78362)).
For PRKCI (Homo sapiens, UniProt P41743): remaining signal read 100%.

Set 3 — observed: β-arrestin recruitment; mode: agonist; technique: PRESTO-Tango; tested at: 10 µM; relative to: untreated
Structure (SMILES): N=C(N)NC(=O)c1cnn(-c2cccc3ncccc23)c1C1CC1
It gave 1.55 for “fold over basal” (ADORA3 (Homo sapiens, UniProt P0DMS8)).
For CCR6 (Homo sapiens, UniProt P51684): “fold over basal” read 1.05.
The “fold over basal” was 1.08 (GPR3 (Homo sapiens, UniProt P46089)).
It gave 0.88 fold for “fold over basal” (FPR1 (Homo sapiens, UniProt P21462)).
The “fold over basal” was 0.92 (PTH1R (Homo sapiens, UniProt Q03431)).

Set 4 — observed: cell-free assay; technique: competition with immobilised ligand; tested at: 1 µM
Structure (SMILES): O=C(Nc1cccnn1)N1CC(C/C=C/c2cncc(Oc3ccc(C(F)(F)F)cn3)n2)C1
It gave 79% for remaining binding (ACVR1B (Homo sapiens, UniProt P36896)).
For DYRK1B (Homo sapiens, UniProt Q9Y463): remaining binding read 100%.
MAP3K6 (Homo sapiens, UniProt O95382) — remaining binding: 60%.
For EGFR (Homo sapiens, UniProt P00533, del746-750): remaining binding read 85%.
For WNK3 (Homo sapiens, UniProt Q9BYP7): remaining binding read 84%.
The remaining binding was 64% (STK11 (Homo sapiens, UniProt Q15831)).

A few entries again (set 4):
MAP3K6 (Homo sapiens, UniProt O95382) — remaining binding: 60%.
For EGFR (Homo sapiens, UniProt P00533, del746-750): remaining binding read 85%.
